Measurements from different studies.
Values joined by “and” are separate records of one study, mostly repeats; a detail may differ. Numbers after ± are the reported error.

C[C@@H](NC(=O)N1C(=O)[C@H](Cc2ccnc(N)c2)[C@H]1C(=O)O)C1CCCCC1  PT Emax (human; iv infusion, 0.3 mg/kg/h, 24 h, unit not given; relative to: baseline): 1.08
O=C1N(Cc2ccccc2Cl)c2ccccc2C12NN=C(c1ccccc1)S2 (stereo not drawn)  T/C (MDA-MB-231 xenograft, mouse; intravenous, 470 mg/kg total, once daily dosing): 81%
N#Cc1ccn2c(-c3ccncc3)c(-c3ccc(F)cc3)nc2c1  log2 fold change (kinase binding, competitor, MIB/MS competition, measured: SSK2; Candida albicans cell lysate; 100 nM; relative to: DMSO): -0.143
C[C@@H](O)CCOC(=O)C[C@@H](C)O  metabolite level (measured: C16:1 acylcarnitine; human, plasma; 60 min, log2-transformed values): -5.57 ± 0.65 µmol/L
Cn1nnc2c(C(N)=O)ncn2c1=O  T/C ratio (mouse subcutaneous GBM PDX sample F; subcutaneous, dose not given): -68%
N#Cc1ccc2c(c1)[C@H]1CCCN(C(=O)c3ccc4[nH]cnc4c3)[C@H]1C2  body weight change from baseline (human clinical trial; oral, 240 mg once daily, 28 d; relative to: placebo): -1.02 kg
CC(C)C[C@@H](NC(=O)[C@H](C)NC(=O)CNC(=O)[C@@H](NC=O)C(C)C)C(=O)N[C@@H](C)C(=O)N[C@@H](C(=O)N[C@H](C(=O)N[C@@H](C(=O)N[C@@H](Cc1c[nH]c2ccccc12)C(=O)N[C@H](CC(C)C)C(=O)N[C@@H](Cc1cc2ccccc2[nH]1)C(=O)N[C@H](CC(C)C)C(=O)N[C@@H](Cc1c[nH]c2ccccc12)C(=O)N[C@H](CC(C)C)C(=O)N[C@@H](Cc1c[nH]c2ccccc12)C(=O)NCCO)C(C)C)C(C)C)C(C)C  EC50 (H+/Na+ transport, pyranine pH-gradient; EYPC/EYPG LUVs 19:1): 2.54 ± 0.67 nM
Cc1ccc([C@@H]2O[C@H](CO)[C@@H](O)[C@H](O)[C@H]2O)cc1Cc1ccc(-c2ccc(F)cc2)s1  change in 24-h mean serum insulin (Japanese type 2 diabetes patients; 200 mg, day 1; relative to: day 0): -1.5 µU/mL
c1ccc(-c2n[nH]cc2-c2ccnc3ccccc23)nc1  log2 fold change (kinase binding, competitor, MIB/MS competition, measured: RTK1; Candida albicans cell lysate; 100 nM; relative to: DMSO): 1.08
O=C1CCc2ccc(OCCCCN3CCN(c4cccc(Cl)c4Cl)CC3)cc2N1  stopping or switching (patients CYP2D6 IM; 12 months): 50%
COc1nnc2ccc(N3CCC(c4ccc(OCCN5CCN(C)C(=O)[C@H]5C)cc4)CC3)nn12  time HEXIM1 above threshold (patients; 15 mg twice daily): 8.38 h
CC(C)NCC(O)c1ccc(O)c(O)c1 (stereo not drawn)  sarcomere length (ventricular cardiomyocytes, C57BL/6 mouse; dose not given, 0.276 s): 1.69 µm
Cc1cn(-c2ccc3n(c2=O)CCN([C@@H](C)[C@@H]2CC[C@H](c4cc(F)c(Cl)cc4C(F)(F)F)O2)C3=O)cn1  change in CSF level (measured: Aβ38; human, cerebrospinal fluid; 150 mg single dose, Tmax; relative to: placebo-adjusted baseline): 29.9%
CSCCNc1nc(SCCC(F)(F)F)nc2c1ncn2[C@@H]1O[C@H](COP(=O)(O)OP(=O)(O)C(Cl)(Cl)P(=O)(O)O)[C@@H](O)[C@H]1O  platelet aggregation AUC (ADP-induced platelet aggregation, Multiplate aggregometry; human patients, whole blood; dose not given, 15 min): 28.1 ± 14.1 U
OC(CCN1CCCCC1)(c1ccccc1)C1CC2C=CC1C2 (stereo not drawn)  change, EEG Alpha power, in O1-Pz (resting-state EEG; healthy elderly humans; oral, 2 mg, eyes closed, LS mean; relative to: baseline): -6.9%
Cn1cc(Nc2nc(N)nc(-c3cccc(-n4ccc5cc(C6CC6)cc(F)c5c4=O)c3CO)n2)cn1  inhibition (CD63 upregulation, anti-IgE-induced; human, multiple ascending dose, whole blood basophils ex vivo; 150 mg twice daily, day 14, 6 h): 93.6%
COC(=O)CCc1ccc(OCC(O)CNC(C)C)cc1 (stereo not drawn)  systolic blood pressure (healthy male humans; concentration not given, 5 min, added: saline): 108 mm Hg
C[C@H](Oc1ccc(Br)cc1-c1ccon1)C(=O)O  difference from placebo (last response peak; human, tibialis anterior muscle; 200 mg, 15 Hz, single ascending dose): -5.93%
CCCCCCCC(=O)OC[C@H](NC(=O)[C@H](CO)NC(=O)CN)C(=O)N[C@@H](Cc1ccccc1)C(=O)N[C@@H](CC(C)C)C(=O)N[C@@H](CO)C(=O)N1CCC[C@H]1C(=O)N[C@@H](CCC(=O)O)C(=O)N[C@@H](Cc1c[nH]cn1)C(=O)N[C@@H](CCC(N)=O)C(=O)N[C@@H](CCCNC(=N)N)C(=O)N[C@H](C(=O)N[C@@H](CCC(N)=O)C(=O)N[C@@H](CCC(N)=O)C(=O)N[C@@H](CCCNC(=N)N)C(=O)N[C@@H](CCCCN)C(=O)N[C@@H](CCC(=O)O)C(=O)N[C@@H](CO)C(=O)N[C@@H](CCCCN)C(=O)N[C@@H](CCCCN)C(=O)N1CCC[C@H]1C(=O)N1CCC[C@H]1C(=O)N[C@@H](C)C(=O)N[C@@H](CCCCN)C(=O)N[C@@H](CC(C)C)C(=O)N[C@@H](CCC(N)=O)C(=O)N1CCC[C@H]1C(=O)N[C@@H](CCCNC(=N)N)C(=O)O)C(C)C  food intake increase (C57BL/6N mice, male; subcutaneous, 2 mg/kg, 2 h, standard chow; relative to: saline): ~86%
N#Cc1ccc2c(-c3ccncc3)c(-c3ccc(F)cc3)nn2c1  log2 fold change (kinase binding, competitor, MIB/MS competition, measured: YPK1; Candida albicans cell lysate; 1 µM; relative to: DMSO): 0.00977
CC(=O)Oc1cc2c(s1)CCN(C(C(=O)C1CC1)c1ccccc1F)C2 (stereo not drawn)  patients with IPA above threshold (platelet aggregation, light transmittance aggregometry; human, platelet-rich plasma; dose not given, 30 min, IPA above 80 %, added: TRAP 5 µM; relative to: patients): 0%
CC#Cc1cncc(-c2ccc3c(c2)[C@@]2(N=C(C)C(N)=N2)[C@]2(CC[C@H](OC)CC2)C3)c1  IC50 (plasma Aβ40 reduction, PK/PD model; beagle dog; oral, free plasma concentration basis): ~0.1 nM
C=C1CC[C@H](OCCCNC(=O)CCOCCOCCOCCOCCOCCOCCOCCOCCOCCOCCOCCOCCOCCOCCOCCOCCOCCOCCOCCOCCOCCOCCOCCOCCOCCOCCOCCOCCOCCOCCOCCOCCOCCOCCOCCOCCNC(=O)CCN2C(=O)CC(SC[C@H](NC(=O)[C@H](CCCNC(=N)N)NC(=O)[C@@H]3CCCN3C(=O)[C@H](CCC(N)=O)NC(=O)[C@H](CC(C)C)NC(=O)[C@H](CCCCN)NC(=O)[C@H](C)NC(=O)[C@@H]3CCCN3C(=O)[C@@H]3CCCN3C(=O)[C@H](CCCCN)NC(=O)[C@H](CCCCN)NC(=O)[C@H](CO)NC(=O)[C@H](CCC(=O)O)NC(=O)[C@H](CCCCN)NC(=O)[C@H](CCCNC(=N)N)NC(=O)[C@H](CCC(N)=O)NC(=O)[C@H](CCC(N)=O)NC(=O)[C@@H](NC(=O)[C@H](CCCNC(=N)N)NC(=O)[C@H](CCC(N)=O)NC(=O)[C@H](Cc3c[nH]cn3)NC(=O)[C@H](CCC(=O)O)NC(=O)[C@@H]3CCCN3C(=O)[C@H](CO)NC(=O)[C@H](CC(C)C)NC(=O)[C@H](Cc3ccccc3)NC(=O)[C@H](CNC(=O)CCCCCCC)NC(=O)[C@H](CO)NC(=O)CN)C(C)C)C(=O)O)C2=O)C/C1=C/C=C1\CCC[C@]2(C)[C@@H]([C@H](C)CCCC(C)(C)O)CC[C@@H]12 (stereo partly drawn)  food intake decrease (C57BL/6J mice, LLC tumour-induced cachexia; subcutaneous, 0.25 mg/kg daily, 2 weeks; relative to: tumour-bearing vehicle): 5%
C[C@H]1O[C@@H](O[C@H]2CC[C@@]3(C)[C@@H](CC[C@]4(C)[C@@H]3C=C[C@]35OC[C@@]6(CCC(C)(C)C[C@H]63)[C@@H](O)C[C@]54C)[C@]2(C)CO)[C@H](O)[C@@H](O[C@@H]2O[C@H](CO)[C@@H](O)[C@H](O)[C@H]2O)[C@H]1O  ALT activity (chronic-plus-binge ethanol mice, plasma; oral, 15 mg/kg/day for 7 d, 168 h): 24.2 U/L and 22.3 U/L and 25.1 U/L and 18.5 U/L and 16.4 U/L
CCN(Cc1nc2c(N)nc3cc(-c4cc[nH]n4)ccc3c2[nH]1)C(C)=O  fold change (Luminex, measured: G-CSF; cancer patients, serum; 1200 µg monotherapy, first 24 h; relative to: baseline): 4.8
COC(=O)c1c(C)[nH]c(C)c1C(=O)c1ccccc1Cc1ccccc1  serotonin-induced response (high-content microscopy; DRG neurons, rat; dose not given, unit not given, added: DAMGO 0.3; relative to: no DAMGO): 0.588 and 0.387 and 0.503 and 0.575
NC/C(=C\F)COc1cccc(Cn2c(=S)[nH]c(=O)c3[nH]cnc32)c1  fibrosis area (mouse, unilateral ureteral obstruction, left kidney (obstructed); dose not given): 7.91% and 3.81% and 6.6% and 14.3% and 8.35% and 3.84% and 5.55%
O=C(O)CNC(=O)Cc1ccccc1  sarcomere length (ventricular cardiomyocytes, C57BL/6 mouse; dose not given, 0.44 s): 1.72 µm
Cc1oncc1C(=O)Nc1ccc(C(F)(F)F)cc1  DHO concentration (measured: dihydroorotate; female CD-1 mice, blood; oral, 10 mg/kg daily, 8 h after dose 10, 10-day dosing): 15.8 ± 6.05 µM
N#Cc1ccc2c(c1)[C@H]1CCCN(C(=O)c3ccc4[nH]cnc4c3)[C@H]1C2  total urinary corticosteroid excretion (T2DM patients with overweight or obesity, urine; oral, 360 mg, day 14, 0-24 h, multiple dosing, adjusted geometric mean; relative to: baseline day -1, -24-0 h): 221%
CS(=O)(=O)CCNCc1ccc(-c2ccc3ncnc(Nc4ccc(OCc5cccc(F)c5)c(Cl)c4)c3c2)o1  ED50 (tumour growth; HT115, mouse, subcutaneous HT115 xenograft; oral, 21 days daily, colon cancer): 52.7 mg/kg
C[C@H]1C[C@H]2CSC(N)=N[C@@]2(c2nc(NC(=O)c3ccc(OC(F)F)cn3)cs2)CO1  percent change from baseline (measured: Aβ1-40; healthy adults, plasma; 160 mg single dose, 4 h post-dose; relative to: placebo): -61.6%
CN[C@@H](C)C(=O)N[C@H]1CN(S(=O)(=O)c2cccc(S(=O)(=O)N3CC[C@H]4CC[C@@H](C(=O)NC(c5ccccc5)c5ccccc5)N4C(=O)[C@@H](NC(=O)[C@H](C)NC)C3)c2)CC[C@H]2CC[C@@H](C(=O)NC(c3ccccc3)c3ccccc3)N2C1=O  response rate (mouse pancreatic cancer PDX; dose not given, day 33, partial response plus stable disease, added: AG): 100%
CCCCCCCCCCCCCCCC(=O)NCCO  ED50 (mechanical withdrawal threshold; mouse, paclitaxel neuropathic pain; oral): 40.9 mg/kg
OC[C@H]1O[C@@H](c2ccc(F)c(Cc3cc4ccccc4s3)c2)[C@H](O)[C@@H](O)[C@@H]1O  time glucose at most 70 mg/dL (continuous glucose monitoring; Japanese type 1 diabetes patients; 50 mg/day, day 1; relative to: baseline): 4.82 ± 12.5 % change
N#Cc1ccc(C(c2ccc(C#N)cc2)n2cncn2)cc1  estradiol concentration (ELISA; human patients, tumour homogenate; 2.5 mg daily): 857 ± 81.8 pg/mL
CN(C(=O)n1cnc(-c2ccc[n+]([O-])c2)c1)C1CCCCC1  AUC(0-tau) (measured: OEA; human, plasma; 20 mg once daily, day 10): 272 ng·h/mL
COc1ccc(-c2cncc(N[C@@H](C)c3cccc(NC(=O)c4cncc(C)c4)c3)n2)cc1OC  delta delta Ct (measured: rno-miR-32-5p; rat SU5416/hypoxia model, lung; dose not given, unit not given; relative to: SU5416/hypoxia vehicle): 0.995
NC(=O)c1cnc2[nH]ccc2c1N[C@@H]1[C@@H]2CC3C[C@H]1C[C@@](O)(C3)C2  change from baseline (flow cytometry, measured: CD8+ central memory T cells; Japanese healthy subjects, peripheral blood; oral, 30 mg twice daily, day 4): 0.42%
O[C@H]1CCCN[C@@H]1CCCn1cnc2c(Cl)c(Cl)ccc21  AUC(0-tau) (ELISA, measured: Pro-C6; healthy human volunteers, serum; intraduodenal, 100 mg twice daily, day 14, multiple ascending dose): 117 ng·h/mL
CC[C@@H]1[C@H](F)C(=O)N[C@@H]1COc1nccc2cc(C(N)=O)c(OC)cc12  inhibition (ATP-site probe binding, ActivX profiling, measured: MAP2K1, MAP2K2; THP-1 cell lysate; 0.04 mM, Lys2 site): -4.8%
[Cl-].[Cl-].[Pt+2].[Ru+2].c1ccc(-c2nc3ccccc3nc2-c2ccccn2)nc1.c1cnc2c(c1)ccc1cccnc12.c1cnc2c(c1)ccc1cccnc12  negative activation entropy (chloride substitution, UV-vis kinetics; aqueous buffer; concentration not given, pH 7.2, second substitution step, added: guanosine 5'-monophosphate): 108 ± 7 J/(mol·K)
CC(c1cc2ccccc2s1)N(O)C(N)=O (stereo not drawn)  amount (measured: 12-HEPE; human whole blood; 3 µM, added: A23187): 172 ± 27 pg/mL blood
COc1nc(-c2cc(C)c(N[C@@H](C)c3cc(F)cc(F)c3)nn2)ccc1-n1cnc(C)c1  change in level (measured: Aβ40; rat Sprague-Dawley male, plasma; oral, 50 mg/kg daily for 9 days, 4 h after dose; relative to: vehicle): 94%
C=CCn1c(=O)c2cnc(Nc3ccc(N4CCN(C)CC4)cc3)nc2n1-c1ccc2c(n1)[C@@](O)(CC)CC2  tumour volume difference (NCI-H23 xenograft, NCG mice; oral, 80 mg/kg, day 35, once daily x 35): 186 ± 10.4 mm3
Cn1cc([C@H]2C[C@H]3CSC(N)=N[C@@]3(c3ccc(F)cc3F)CO2)cn1  Aβ42 level (measured: Aβx-42; Mus musculus wild-type, brain; subcutaneous, 3 mg/kg, 1 h): 0.56 ng/g
CO[C@H]1CC[C@H](N2C(=O)CNc3ncc(-c4ccc(C(C)(C)O)nc4)nc32)CC1  pS6RP change from baseline (flow cytometry; stimulated B cells, human, blood; 45 mg single dose, 24 h, median; relative to: baseline): -32.9%
COc1ccc2c(c1)CC[C@@H]1[C@@H]2CC[C@]2(C)[C@@H](NCCCCCCN3C(=O)C=CC3=O)CC[C@@H]12  p-PKA level (immunostaining; humanized mouse, SAH model, meningeal F4/80+ macrophages; dose not given): 8.21 MFI and 4.79 MFI and 6.79 MFI
